Measurements pooled from the literature.
A part holds a random share of what one study measured. Values joined by “and” are separate records of one study, mostly repeats; a detail may differ. Substitutions count along the parent as printed.
Chain of UniProt P38919 (whole entry, looked up): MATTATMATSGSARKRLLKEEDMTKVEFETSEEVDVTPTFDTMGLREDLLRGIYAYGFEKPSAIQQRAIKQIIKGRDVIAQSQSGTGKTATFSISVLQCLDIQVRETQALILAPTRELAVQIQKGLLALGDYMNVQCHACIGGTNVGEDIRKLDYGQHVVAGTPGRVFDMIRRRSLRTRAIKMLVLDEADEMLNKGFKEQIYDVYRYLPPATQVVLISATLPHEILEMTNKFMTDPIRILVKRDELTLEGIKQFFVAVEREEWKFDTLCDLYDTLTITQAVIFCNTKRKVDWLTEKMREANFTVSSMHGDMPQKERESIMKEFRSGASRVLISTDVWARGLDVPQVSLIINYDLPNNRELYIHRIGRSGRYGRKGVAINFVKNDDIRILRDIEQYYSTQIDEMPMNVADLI
Chain of UniProt P08912 (whole entry, looked up): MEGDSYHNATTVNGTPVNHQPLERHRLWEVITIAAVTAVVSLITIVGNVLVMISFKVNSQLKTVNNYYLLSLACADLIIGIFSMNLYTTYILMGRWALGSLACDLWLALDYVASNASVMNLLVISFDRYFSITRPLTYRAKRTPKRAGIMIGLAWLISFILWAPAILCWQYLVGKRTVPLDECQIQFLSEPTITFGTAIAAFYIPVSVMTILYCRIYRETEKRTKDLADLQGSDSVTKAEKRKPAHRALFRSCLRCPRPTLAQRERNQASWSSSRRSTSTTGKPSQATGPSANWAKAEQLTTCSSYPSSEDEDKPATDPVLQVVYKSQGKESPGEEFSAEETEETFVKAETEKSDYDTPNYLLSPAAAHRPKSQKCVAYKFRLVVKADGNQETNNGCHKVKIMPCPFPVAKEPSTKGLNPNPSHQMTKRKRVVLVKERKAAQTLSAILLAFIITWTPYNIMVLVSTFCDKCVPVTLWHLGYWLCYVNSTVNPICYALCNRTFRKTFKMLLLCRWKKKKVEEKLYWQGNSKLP

Set 1 — observed: binding; technique: phage display NGS; molecule type: peptide; notes: panning round 2; baseline: input library
Target: UDP-N-acetylglucosamine--peptide N-acetylglucosaminyltransferase 110 kDa subunit (OGT, Homo sapiens, UniProt O15294)
Chain of UniProt O15294 (whole entry, looked up): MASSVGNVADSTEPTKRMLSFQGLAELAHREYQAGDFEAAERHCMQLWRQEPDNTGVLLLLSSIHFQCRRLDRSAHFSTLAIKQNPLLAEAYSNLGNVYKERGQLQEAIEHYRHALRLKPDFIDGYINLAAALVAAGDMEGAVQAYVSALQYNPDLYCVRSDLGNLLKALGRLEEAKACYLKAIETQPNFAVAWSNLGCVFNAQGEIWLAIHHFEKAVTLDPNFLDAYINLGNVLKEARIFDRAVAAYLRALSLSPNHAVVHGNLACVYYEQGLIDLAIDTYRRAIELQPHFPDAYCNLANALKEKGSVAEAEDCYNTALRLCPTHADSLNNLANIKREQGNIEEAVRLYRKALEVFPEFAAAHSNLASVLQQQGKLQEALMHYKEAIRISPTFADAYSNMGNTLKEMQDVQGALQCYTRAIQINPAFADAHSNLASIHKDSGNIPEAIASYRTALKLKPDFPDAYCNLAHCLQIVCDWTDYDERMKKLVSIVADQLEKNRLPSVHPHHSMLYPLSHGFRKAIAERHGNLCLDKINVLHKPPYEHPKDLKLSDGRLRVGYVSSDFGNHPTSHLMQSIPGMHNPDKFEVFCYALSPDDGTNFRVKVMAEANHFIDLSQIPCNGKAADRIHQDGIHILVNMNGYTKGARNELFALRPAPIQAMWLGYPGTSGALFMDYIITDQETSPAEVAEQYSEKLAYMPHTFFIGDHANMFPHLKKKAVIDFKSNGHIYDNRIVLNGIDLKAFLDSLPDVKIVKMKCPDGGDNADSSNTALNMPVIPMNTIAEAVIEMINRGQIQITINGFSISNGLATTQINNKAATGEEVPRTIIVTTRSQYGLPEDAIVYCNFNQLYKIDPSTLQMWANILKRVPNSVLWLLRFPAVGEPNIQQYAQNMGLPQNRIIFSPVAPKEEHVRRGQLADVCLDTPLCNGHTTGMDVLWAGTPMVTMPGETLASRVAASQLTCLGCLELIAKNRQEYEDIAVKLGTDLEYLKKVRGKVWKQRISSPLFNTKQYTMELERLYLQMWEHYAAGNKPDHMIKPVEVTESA
Molecule | minimum log2 enrichment ratio
ANFMPYYEIMVSDP | 1.61
VRQHHHQNAGWHMYH | 2.64
NLYRPQYQINFFDTI | 6.42

Set 2 — technique: RNAcompete; molecule type: RNA; sample: in vitro; concentration: 20 nM; notes: 7-mer, probes averaged, single round; baseline: mean of 7-mers; direction: higher = stronger binding
Target: PABPC1L2, full length, GST fusion (mouse, UniProt A0ABA7IW68)
Construct (chain): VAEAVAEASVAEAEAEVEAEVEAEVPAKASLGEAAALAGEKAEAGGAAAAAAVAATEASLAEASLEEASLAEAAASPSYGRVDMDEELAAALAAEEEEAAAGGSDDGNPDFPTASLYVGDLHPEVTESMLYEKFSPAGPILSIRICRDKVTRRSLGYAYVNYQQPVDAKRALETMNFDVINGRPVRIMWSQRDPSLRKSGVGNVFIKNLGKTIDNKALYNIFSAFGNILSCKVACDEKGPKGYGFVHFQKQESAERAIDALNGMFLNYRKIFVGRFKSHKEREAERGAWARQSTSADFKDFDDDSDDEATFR
Sequence | 7-mer Z-score
AAAAUGC | 5.43
GCUGAAA | 0.765
CGAUGCU | -0.286
AACUCCU | -0.219
CCAAACG | 0.00617
UUUGACU | -0.275
CAUACUU | -0.257
GUAUCAU | -0.115

Set 3 — target: CRIPT, C-terminal peptide; technique: DHFR complementation, deep sequencing; sample: yeast; baseline: wild type; direction: higher = weaker binding
Notes: single substitutions, model-inferred values
Parent: ERBIN, PDZ domain 1 (human); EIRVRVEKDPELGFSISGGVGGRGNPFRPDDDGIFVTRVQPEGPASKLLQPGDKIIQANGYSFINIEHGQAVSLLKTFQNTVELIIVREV; partner TKNYKQTSV
Variant | binding free energy change [kJ/mol]
G18W | 3.31
E7W | 0.516
E11R | 1.58
G24C | 3.98
G60W | 0.424
P26H | 4.14
A45M | 6.71
R23D | -9.5

Further values, each from its own experiment
CHRM1: Muscarinic acetylcholine receptor M1 (CHRM1, Homo sapiens, UniProt P11229)
Chain of UniProt P11229 (whole entry, looked up): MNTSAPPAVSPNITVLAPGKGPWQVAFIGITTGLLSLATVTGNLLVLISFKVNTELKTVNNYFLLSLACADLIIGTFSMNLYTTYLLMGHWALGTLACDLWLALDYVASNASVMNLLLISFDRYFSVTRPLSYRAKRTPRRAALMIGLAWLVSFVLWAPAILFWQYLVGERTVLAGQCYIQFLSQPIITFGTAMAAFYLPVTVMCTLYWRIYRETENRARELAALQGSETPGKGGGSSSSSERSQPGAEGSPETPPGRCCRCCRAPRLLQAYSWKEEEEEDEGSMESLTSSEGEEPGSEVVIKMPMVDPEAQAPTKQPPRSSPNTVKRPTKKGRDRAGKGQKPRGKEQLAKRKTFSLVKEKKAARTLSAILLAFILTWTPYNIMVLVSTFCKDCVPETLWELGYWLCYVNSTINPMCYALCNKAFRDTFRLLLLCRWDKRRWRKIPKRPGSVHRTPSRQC
SMILES | target | assay | conditions | measurement | result
CC(=O)Nc1c(F)cc(C(=O)N[C@H]2CC[C@H](O)CC2)cc1O[C@@H](C)c1ccccc1 | CHRM1 | binding, radioligand binding | 10 µM | inhibition | -4.64%
COC(=O)[C@@H]1[C@@H](c2ccccc2)[C@]2(c3ccc(OC)cc3)Oc3cc(OC)cc(OC)c3[C@@]23N=C(C)N[C@@]13O | Eukaryotic initiation factor 4A-III (Homo sapiens, UniProt P38919) | RNA clamping, fluorescence polarization | concentration not given, added: FAM-labelled poly r(AG)8 RNA | fluorescence polarization change | 64.9 mP and 60 mP
O=C1CCc2cc(Nc3cc(OC4CCOCC4)c([N+](=O)[O-])cc3Cl)ccc2N1 | CHRM1 | binding, radioligand binding | 10 µM | inhibition | -4.43%
CNC(=O)c1cc(C(=O)NC2CC2)cn(Cc2ccccc2)c1=O | CHRM5 (Homo sapiens, UniProt P08912) | binding, radioligand binding | 10 µM | inhibition | -5.05%

Excerpt of the above (set 3):
Variant | binding free energy change [kJ/mol]
E11R | 1.58
G18W | 3.31
